Results pooled from the literature.
Each line is one published result; not all experiments were run side by side.
Organism: Bacillus subtilis

SMILES | read-out | technique | strain | time | temperature | MIC
CN1CCC(NCCC2(Cc3ccc(Cl)cc3)CCCCC2)CC1 | microbial growth |  | 168 | 10 h |  | 100 µM
Cn1c(C23CC4CC(CC(C4)C2)C3)nn(CCN2CCCCC2)c1=S |  | two-fold dilution | IFO 3007 | 24 h | 36 °C | 2 µg/mL
CC1C=CC=CC(C)C2C=CC3CC(C)(O)C(Cl)C(C)C3C2C(=O)C(Cl)(Cl)C(=O)C(C)C(=O)O1 (centres unmarked) | microbial growth | broth dilution |  |  |  | 0.1 µg/mL
COc1ccc(-c2cc(C(F)(F)F)n3nc(N)nc3n2)cc1OC |  | broth microdilution | 3610 | 20 h | 37 °C | > 128 µg/mL
CC(=O)c1ccc2c(c1)sc1nc(=O)c(C#N)cn12 | microbial growth | broth dilution |  |  |  | < 66 µg/mL
CN(C)c1ccc2c(CC(=O)NCCCn3cc(CCCCC(=O)Oc4c(Cl)cc(Cl)cc4-c4[nH]c(Cl)c(Cl)c4Cl)nn3)cc(=O)oc2c1 | microbial growth | broth dilution | 168 | 20 h |  | 0.25 µg/mL
COc1ccc(-c2csc(N/N=C(\C)c3ccc4c(c3)sc3nc(=O)c(C#N)cn34)n2)cc1 | microbial growth | broth dilution |  |  |  | < 47 µg/mL
CCOC1C(C)C2C(C=CC3C(C)C=CC=CC(C)OC(=O)C(C)C(=O)C(Cl)(Cl)C(=O)C32)CC1(C)O (centres unmarked) | microbial growth | broth dilution |  |  |  | > 6.4 µg/mL
FC(F)(F)c1cc(CSc2nnc(C34CC5CC(CC(C5)C3)C4)n2-c2ccccc2)cc(C(F)(F)F)c1 |  | two-fold dilution | IFO 3007 | 24 h | 36 °C | 0.5 µg/mL
CCCCCCCCCCCCCc1cc(O)cc(O)c1 | microbial growth | broth dilution | 168 |  |  | 8 µg/mL
COC1C(C)C2C(C=CC3C(C)C=CC=CC(C)OC(=O)C(C)C(=O)C(Cl)(Cl)C(=O)C32)CC1(C)O (centres unmarked) | microbial growth | broth dilution |  |  |  | 6.4 µg/mL
Oc1c(Br)ccc2cccnc12 | microbial growth | agar dilution | ATCC6633 |  |  | 35.7 µM
CCCCCC/C=C\CCCCCCC[C@@H](O)Cc1cc(O)cc(O)c1 | microbial growth | broth dilution | 168 |  |  | 8 µg/mL
COC1(C)CC2C=CC3C(C)C=CC=CC(C)OC(=O)C(C)C(=O)C(Cl)(Cl)C(=O)C3C2C(C)C1O (centres unmarked) | microbial growth | broth dilution |  |  |  | > 3.2 µg/mL
S=c1n(CN2CCN(c3ccccn3)CC2)nc(C23CC4CC(CC(C4)C2)C3)n1-c1ccccc1 |  | two-fold dilution | IFO 3007 | 24 h | 36 °C | 0.5 µg/mL
CCCCCCCCCCCC[S+]([O-])CC1OC(OC2C(N)CC(N)C(OC3OC(CN)C(O)CC3N)C2O)C(O)C(N)C1O (mixture of isomers) |  |  | 168 |  |  | 4.7 µg/mL

SMILES | read-out | technique | strain | time | temperature | MIC
COc1ccccc1C(=O)c1[nH]c(Cl)c(Cl)c1-n1c(C(=O)c2ccccc2OC)cc(Cl)c1Cl | microbial growth | broth dilution | 168 | 20 h |  | 32 µg/mL
O=C(O)CN1C(=O)/C(=C/c2ccc(-c3ccc(N(c4ccccc4)c4ccccc4)cc3)cc2)NC1=S |  | broth microdilution | ATCC 6633 |  |  | 3.9 µg/mL
COC(=O)CCCCc1cn(CCCNC(=O)Cc2cc(=O)oc3cc(N(C)C)ccc23)nn1 | microbial growth | broth dilution | 168 | 20 h |  | > 64 µg/mL
CCCCOC1C(C)C2C(C=CC3C(C)C=CC=CC(C)OC(=O)C(C)C(=O)C(Cl)(Cl)C(=O)C32)CC1(C)O (centres unmarked) | microbial growth | broth dilution |  |  |  | 0.8 µg/mL
C/C(=N\NC(N)=S)c1ccc2c(c1)sc1nc(=O)c(C#N)cn12 | microbial growth | broth dilution |  |  |  | < 59 µg/mL
S=c1n(CN2CCN(Cc3ccccc3)CC2)nc(C23CC4CC(CC(C4)C2)C3)n1-c1ccccc1 |  | two-fold dilution | IFO 3007 | 24 h | 36 °C | 8 µg/mL
CCOC1(C)CC2C=CC3C(C)C=CC=CC(C)OC(=O)C(C)C(=O)C(Cl)(Cl)C(=O)C3C2C(C)C1O (centres unmarked) | microbial growth | broth dilution |  |  |  | > 3.2 µg/mL
CCCCCCCCCCCCCCCc1cc(O)cc(O)c1 | microbial growth | broth dilution | 168 |  |  | 64 µg/mL
C/C(=N\Nc1nc(-c2ccccc2)cs1)c1ccc2c(c1)sc1nc(=O)c(C#N)cn12 | microbial growth | broth dilution |  |  |  | < 68 µg/mL
CCCCCCCCCCCCCCCCCCCCCCSCC1OC(OC2C(N)CC(N)C(OC3OC(CN)C(O)CC3N)C2O)C(O)C(N)C1O (centres unmarked) |  |  | 168 |  |  | 150 µg/mL
CC1C=CC=CC(C)C2C=CC3CC(C)(O)C(OCc4ccccc4)C(C)C3C2C(=O)C(Cl)(Cl)C(=O)C(C)C(=O)O1 (centres unmarked) | microbial growth | broth dilution |  |  |  | 0.4 µg/mL
O=C(c1cc(Cl)c(Cl)[nH]1)c1ccccc1O | microbial growth | broth dilution | 168 | 20 h |  | 16 µg/mL
C[C@@H]1C(=O)O[C@@H](C)/C=C/C=C\[C@@H](C)[C@@H]2C=C[C@@H]3C[C@@]4(C)O[C@H]4[C@@H](C)[C@H]3[C@@H]2C(=O)C(Cl)(Cl)C1=O | microbial growth | broth dilution |  |  |  | 0.025 µg/mL
CN[C@H](CC(C)C)C(=O)N[C@H]1C(=O)N[C@@H](CC(N)=O)C(=O)N[C@H]2C(=O)N[C@H]3C(=O)N[C@H](C(=O)N[C@H](C(=O)O)c4cc(O)cc(O)c4-c4cc3ccc4O)[C@H](O)c3ccc(c(Cl)c3)Oc3cc2cc(c3O[C@@H]2O[C@H](CO)[C@@H](O)[C@H](O)[C@H]2O[C@H]2C[C@](C)(NCc3ccc(C(=O)OCCCCCCN(Cc4ccccn4)Cc4ccccn4)cc3)[C@H](O)[C@H](C)O2)Oc2ccc(cc2Cl)[C@H]1O | microbial growth |  |  |  |  | 0.2 µM
COC(=O)CCCCc1cn(CCCNC(=O)CCc2ccc3n2[B-](F)(F)[N+]2=C(C)C=C(C)C2=C3)nn1 | microbial growth | broth dilution | 168 | 20 h |  | > 64 µg/mL
N#Cc1ccc2cccc(O)c2n1 | microbial growth | agar dilution | ATCC6633 |  |  | > 1500 µM

A few entries again:
SMILES | read-out | technique | strain | time | temperature | MIC
COc1ccccc1C(=O)c1[nH]c(Cl)c(Cl)c1-n1c(C(=O)c2ccccc2OC)cc(Cl)c1Cl | microbial growth | broth dilution | 168 | 20 h |  | 32 µg/mL
FC(F)(F)c1cc(CSc2nnc(C34CC5CC(CC(C5)C3)C4)n2-c2ccccc2)cc(C(F)(F)F)c1 |  | two-fold dilution | IFO 3007 | 24 h | 36 °C | 0.5 µg/mL
